Published values from different studies.
A part holds a random share of what one study measured.
Sequence of UniProt P42336 (whole entry, unmodified, looked up): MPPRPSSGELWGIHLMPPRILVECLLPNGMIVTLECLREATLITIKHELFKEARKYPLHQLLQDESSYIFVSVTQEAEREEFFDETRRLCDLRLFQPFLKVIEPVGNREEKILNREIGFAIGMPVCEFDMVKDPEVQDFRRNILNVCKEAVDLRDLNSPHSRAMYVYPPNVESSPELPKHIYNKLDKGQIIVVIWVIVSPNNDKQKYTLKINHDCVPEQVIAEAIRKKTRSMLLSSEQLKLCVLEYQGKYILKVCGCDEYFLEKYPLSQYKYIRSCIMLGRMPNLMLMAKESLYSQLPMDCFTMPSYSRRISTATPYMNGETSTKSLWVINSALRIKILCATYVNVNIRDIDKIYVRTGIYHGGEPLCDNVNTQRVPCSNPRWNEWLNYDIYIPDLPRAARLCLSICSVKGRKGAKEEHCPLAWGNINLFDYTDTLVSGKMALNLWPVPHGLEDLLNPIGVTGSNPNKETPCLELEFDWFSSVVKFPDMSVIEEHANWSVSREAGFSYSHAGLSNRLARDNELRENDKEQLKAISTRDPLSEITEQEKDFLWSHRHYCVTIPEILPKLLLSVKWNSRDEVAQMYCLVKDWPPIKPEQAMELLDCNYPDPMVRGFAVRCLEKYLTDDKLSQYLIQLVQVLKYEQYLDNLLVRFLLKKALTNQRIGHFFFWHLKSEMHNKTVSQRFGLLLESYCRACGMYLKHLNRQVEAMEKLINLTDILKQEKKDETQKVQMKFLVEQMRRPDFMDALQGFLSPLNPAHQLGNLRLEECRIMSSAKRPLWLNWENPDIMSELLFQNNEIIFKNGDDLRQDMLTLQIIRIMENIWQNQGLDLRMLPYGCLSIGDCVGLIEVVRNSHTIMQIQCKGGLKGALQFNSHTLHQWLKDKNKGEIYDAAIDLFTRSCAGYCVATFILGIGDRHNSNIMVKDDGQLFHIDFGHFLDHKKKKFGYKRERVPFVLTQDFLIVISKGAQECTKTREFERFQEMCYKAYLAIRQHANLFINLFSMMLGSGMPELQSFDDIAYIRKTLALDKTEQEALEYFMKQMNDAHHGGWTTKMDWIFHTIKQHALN
Sequence of UniProt P11802 (whole entry, looked up): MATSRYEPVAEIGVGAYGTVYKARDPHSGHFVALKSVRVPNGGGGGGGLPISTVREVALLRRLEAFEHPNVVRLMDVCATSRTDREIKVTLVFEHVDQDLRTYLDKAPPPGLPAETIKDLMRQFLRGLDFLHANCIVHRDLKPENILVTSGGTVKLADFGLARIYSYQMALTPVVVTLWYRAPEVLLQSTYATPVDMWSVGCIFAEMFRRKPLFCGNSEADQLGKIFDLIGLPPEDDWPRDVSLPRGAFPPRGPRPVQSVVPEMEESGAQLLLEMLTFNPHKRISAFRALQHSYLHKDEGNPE
Sequence of UniProt P50750 (whole entry, looked up): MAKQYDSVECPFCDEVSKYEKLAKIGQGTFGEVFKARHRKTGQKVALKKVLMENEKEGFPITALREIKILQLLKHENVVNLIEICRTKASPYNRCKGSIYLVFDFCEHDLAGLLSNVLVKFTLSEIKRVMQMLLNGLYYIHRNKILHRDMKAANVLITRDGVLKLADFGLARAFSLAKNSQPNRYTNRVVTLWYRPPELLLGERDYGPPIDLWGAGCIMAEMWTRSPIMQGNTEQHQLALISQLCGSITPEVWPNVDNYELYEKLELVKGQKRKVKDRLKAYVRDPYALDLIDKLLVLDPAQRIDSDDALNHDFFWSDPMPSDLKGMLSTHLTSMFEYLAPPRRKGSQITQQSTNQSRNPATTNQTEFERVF
Sequence of UniProt Q5VT25 (whole entry, looked up): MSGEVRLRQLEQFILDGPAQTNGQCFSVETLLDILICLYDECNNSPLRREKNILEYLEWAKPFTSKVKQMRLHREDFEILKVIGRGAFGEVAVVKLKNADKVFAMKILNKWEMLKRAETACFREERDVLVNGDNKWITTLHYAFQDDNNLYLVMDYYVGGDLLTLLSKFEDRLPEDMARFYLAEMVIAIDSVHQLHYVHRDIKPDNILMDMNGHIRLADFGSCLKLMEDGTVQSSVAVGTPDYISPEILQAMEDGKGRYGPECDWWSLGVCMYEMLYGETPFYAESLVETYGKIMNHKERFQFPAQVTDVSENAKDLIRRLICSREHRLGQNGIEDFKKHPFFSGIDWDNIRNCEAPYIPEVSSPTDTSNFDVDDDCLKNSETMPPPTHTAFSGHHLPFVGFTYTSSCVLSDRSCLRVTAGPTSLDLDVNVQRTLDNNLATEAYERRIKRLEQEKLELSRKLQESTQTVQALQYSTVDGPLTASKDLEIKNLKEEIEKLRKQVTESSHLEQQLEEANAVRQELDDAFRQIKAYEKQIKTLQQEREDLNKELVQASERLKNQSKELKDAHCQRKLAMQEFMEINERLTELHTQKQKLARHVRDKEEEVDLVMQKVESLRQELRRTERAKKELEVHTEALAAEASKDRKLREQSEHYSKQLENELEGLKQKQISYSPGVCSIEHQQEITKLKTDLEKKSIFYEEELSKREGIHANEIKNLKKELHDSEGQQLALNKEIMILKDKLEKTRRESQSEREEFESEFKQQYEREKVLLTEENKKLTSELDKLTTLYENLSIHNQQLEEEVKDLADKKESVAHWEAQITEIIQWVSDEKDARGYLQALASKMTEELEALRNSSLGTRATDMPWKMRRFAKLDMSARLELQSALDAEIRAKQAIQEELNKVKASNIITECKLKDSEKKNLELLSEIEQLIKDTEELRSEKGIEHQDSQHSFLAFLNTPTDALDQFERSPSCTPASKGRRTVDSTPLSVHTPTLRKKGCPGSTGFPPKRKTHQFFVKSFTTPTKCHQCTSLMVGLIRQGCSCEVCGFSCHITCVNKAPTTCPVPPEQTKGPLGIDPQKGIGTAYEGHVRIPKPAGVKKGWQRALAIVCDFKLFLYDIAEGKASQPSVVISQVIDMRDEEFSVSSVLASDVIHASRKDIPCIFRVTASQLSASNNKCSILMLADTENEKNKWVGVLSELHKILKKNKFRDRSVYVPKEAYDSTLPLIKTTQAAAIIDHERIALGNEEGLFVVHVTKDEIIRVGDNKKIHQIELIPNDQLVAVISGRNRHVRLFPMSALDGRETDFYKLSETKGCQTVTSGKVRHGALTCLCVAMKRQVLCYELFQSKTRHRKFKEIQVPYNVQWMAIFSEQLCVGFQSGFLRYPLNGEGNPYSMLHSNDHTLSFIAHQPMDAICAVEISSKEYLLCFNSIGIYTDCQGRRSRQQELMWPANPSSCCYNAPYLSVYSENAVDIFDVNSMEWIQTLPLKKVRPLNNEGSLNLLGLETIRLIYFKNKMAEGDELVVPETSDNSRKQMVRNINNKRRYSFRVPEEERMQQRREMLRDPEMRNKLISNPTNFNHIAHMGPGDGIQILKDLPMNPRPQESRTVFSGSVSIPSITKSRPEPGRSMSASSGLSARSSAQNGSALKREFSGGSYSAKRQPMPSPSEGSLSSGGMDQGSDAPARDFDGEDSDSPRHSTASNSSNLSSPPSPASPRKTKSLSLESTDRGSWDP
Sequence of UniProt P68400 (whole entry, looked up): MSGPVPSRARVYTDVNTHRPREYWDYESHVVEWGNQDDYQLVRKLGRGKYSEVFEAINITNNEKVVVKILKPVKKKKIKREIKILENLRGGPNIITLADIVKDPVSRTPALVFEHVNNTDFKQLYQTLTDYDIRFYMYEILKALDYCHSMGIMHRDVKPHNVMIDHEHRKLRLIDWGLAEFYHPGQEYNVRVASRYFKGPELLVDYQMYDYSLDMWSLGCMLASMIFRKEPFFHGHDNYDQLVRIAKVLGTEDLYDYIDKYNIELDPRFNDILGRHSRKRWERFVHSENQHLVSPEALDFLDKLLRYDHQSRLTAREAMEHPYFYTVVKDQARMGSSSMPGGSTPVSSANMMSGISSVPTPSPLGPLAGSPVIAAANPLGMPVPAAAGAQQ

Study 1 — effect on: enzyme activity; action: inhibitor; concentration: 0.5 µM; baseline: control; quantity: remaining activity
Target: Interleukin-1 receptor-associated kinase 4 (IRAK4, Homo sapiens, UniProt Q9NWZ3)
Sequence of UniProt Q9NWZ3 (whole entry, looked up): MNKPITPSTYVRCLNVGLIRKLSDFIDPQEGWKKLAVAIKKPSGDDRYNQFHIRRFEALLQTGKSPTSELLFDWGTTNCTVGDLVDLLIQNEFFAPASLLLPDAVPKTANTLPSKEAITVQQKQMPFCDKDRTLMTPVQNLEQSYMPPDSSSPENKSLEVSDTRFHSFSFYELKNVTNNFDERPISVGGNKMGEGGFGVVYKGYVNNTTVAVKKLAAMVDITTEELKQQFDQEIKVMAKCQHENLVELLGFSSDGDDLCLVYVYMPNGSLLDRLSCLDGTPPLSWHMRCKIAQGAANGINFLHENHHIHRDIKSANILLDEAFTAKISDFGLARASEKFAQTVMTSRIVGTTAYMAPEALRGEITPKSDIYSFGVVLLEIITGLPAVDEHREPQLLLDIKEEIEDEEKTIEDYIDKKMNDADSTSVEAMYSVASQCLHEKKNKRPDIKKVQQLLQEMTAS
CCN(CC)CCNC(=O)c1c(C)[nH]c(/C=C2\C(=O)Nc3ccc(Cl)cc32)c1C: 22.7%
O=C(Nc1cccc(Nc2nccc(Nc3cccc(C(F)(F)F)c3)n2)c1)C1CC1: 146%
CCN(CC)CCNC(=O)c1c(C)[nH]c(/C=C2\C(=O)Nc3ccc(F)cc32)c1C: 27.4%
O=c1cc(-c2cccc3c2Sc2ccccc2S3)oc(N2CCOCC2)c1: 160%
Cc1nc2cc3nc(-c4cccs4)cnc3cc2n1C: 201%
COc1cc2ncnc(Nc3cccc(Cl)c3)c2cc1OC: 77.7%
C[C@@H]1CCN(C(=O)CC#N)C[C@@H]1N(C)c1ncnc2[nH]ccc12: 88.5%
c1ccc(-c2[nH]ncc2-c2ccnc3ccccc23)nc1: 87.7%
N#C/C(=C\c1ccc(O)c(O)c1)C(=O)NCc1ccccc1: 93.7%
O=C1C(Cl)=C(N2C(=O)CCC2=O)C(=O)c2ccccc21: 89.1%
Cc1cc2ncc(-c3ccccc3)nc2cc1C: 93.1%
Cc1cn(-c2cc(NC(=O)c3ccc(C)c(Nc4nccc(-c5cccnc5)n4)c3)cc(C(F)(F)F)c2)cn1: 80.2%
N#Cc1c(NC(=O)c2cccc3ccccc23)sc2c1CCCC2: 92.9%
Ic1cccc(CSc2nnc(-c3ccncc3)o2)c1: 105%
O=C1c2ccccc2-c2n[nH]c3cccc1c23: 95.7%
Cn1nc2c3c(cccc31)C(=O)c1ccccc1-2: 97.3%
CCN(CC)C(=O)c1ccc(Nc2nc(OCC3CCCCC3)c3[nH]cnc3n2)cc1: 92.4%
CN([C@@H](Cc1ccc(OS(=O)(=O)c2cccc3cnccc23)cc1)C(=O)N1CCN(c2ccccc2)CC1)S(=O)(=O)c1cccc2cnccc12: 92.1%
Nc1cccc(-c2cc3c(Oc4cccc(O)c4)ncnc3[nH]2)c1: 88.2%
COc1cc2ncnc(Nc3ccc(O)c(Br)c3)c2cc1OC: 91.1%
c1ccc(-c2cnc(Nc3ccc(OCCN4CCCC4)cc3)s2)cc1: 86.1%
O=C(NC(NC(=S)Nc1ccc(F)c([N+](=O)[O-])c1)C(Cl)(Cl)Cl)C(c1ccccc1)c1ccccc1 (centres unmarked): 191%
CN(C)C[C@H]1CCn2c(c(C3=C(c4cn(C)c5ccccc45)C(=O)NC3=O)c3ccccc32)C1: 107%
COc1cc2c(cc1OC)-c1[nH]nc(Nc3cccc(F)c3)c1C2: 70%
CCOc1nc(NC(=O)Cc2cc(OC)ccc2OC)cc(N)c1C#N: 94.9%

Study 2 — effect on: enzyme activity; action: inhibitor; concentration: 10 µM; quantity: inhibition
Target: Calcium/calmodulin-dependent protein kinase type II subunit alpha (CAMK2A, Homo sapiens, UniProt Q9UQM7)
Sequence of UniProt Q9UQM7 (whole entry, looked up): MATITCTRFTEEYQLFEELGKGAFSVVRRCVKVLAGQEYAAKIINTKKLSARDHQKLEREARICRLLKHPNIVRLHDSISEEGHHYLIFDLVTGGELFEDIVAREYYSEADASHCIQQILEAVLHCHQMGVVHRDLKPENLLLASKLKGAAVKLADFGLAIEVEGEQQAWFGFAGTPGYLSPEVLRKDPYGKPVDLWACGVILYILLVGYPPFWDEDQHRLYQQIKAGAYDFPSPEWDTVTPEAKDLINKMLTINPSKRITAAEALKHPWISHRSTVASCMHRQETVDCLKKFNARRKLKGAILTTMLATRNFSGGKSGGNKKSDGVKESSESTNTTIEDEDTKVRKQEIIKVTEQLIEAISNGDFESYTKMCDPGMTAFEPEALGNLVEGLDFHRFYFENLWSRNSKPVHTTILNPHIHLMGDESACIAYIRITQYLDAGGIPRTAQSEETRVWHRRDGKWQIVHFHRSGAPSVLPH
CCOC(=O)CCC(=O)O[C@H]1[C@H](O[C@@H]2[C@@H](C)[C@H](O[C@H]3C[C@@](C)(OC)[C@@H](O)[C@H](C)O3)[C@@H](C)C(=O)O[C@H](CC)[C@@](C)(O)[C@H](O)[C@@H](C)C(=O)[C@H](C)C[C@@]2(C)O)O[C@H](C)C[C@@H]1N(C)C: -3%
CC(C)NCC(O)COc1ccc(COCCOC(C)C)cc1 (centres unmarked): -4%
NC(=O)OCC(COC(N)=O)c1ccccc1: 11%
COc1ccc(C[C@@H]2c3cc(Oc4cc(C[C@@H]5c6cc(O)c(OC)cc6CCN5C)ccc4O)c(OC)cc3CCN2C)cc1: -1%
CCOC(=O)c1ccc(O)cc1: 5%
CC(C)(Oc1ccc(Cl)cc1)C(=O)O: 16%
CNS(=O)(=O)Cc1ccc2[nH]cc(CCN(C)C)c2c1: -7%
O=C(c1ccc(OCCN2CCCCC2)cc1)c1c(-c2ccc(O)cc2)sc2cc(O)ccc12: 21%
CCN(CC)c1ccc2cc(-c3nc4ccccc4s3)c(=O)oc2c1: -13%

Study 3 — effect on: cell-free assay; method: competition with immobilised ligand; concentration: 1 µM; quantity: remaining binding
SMILES: CN(C)C(=O)Cn1cc(-c2nc(C3(c4ccc(-c5cnc(N)nc5)cc4)CC3)no2)cn1
Ephrin type-A receptor 2 (EPHA2, Homo sapiens, UniProt P29317): 89%
Focal adhesion kinase 1 (PTK2, Homo sapiens, UniProt Q05397): 100%
Phosphatidylinositol 4,5-bisphosphate 3-kinase catalytic subunit alpha isoform (PIK3CA, Homo sapiens, UniProt P42336, E545A): 99%
Serine/threonine-protein kinase PLK3 (PLK3, Homo sapiens, UniProt Q9H4B4): 89%
Phosphatidylinositol 4,5-bisphosphate 3-kinase catalytic subunit alpha isoform (PIK3CA, Homo sapiens, UniProt P42336, H1047L): 73%
Macrophage colony-stimulating factor 1 receptor (CSF1R, Homo sapiens, UniProt P07333): 100%
Cyclin-dependent kinase 4 (CDK4, Homo sapiens, UniProt P11802): 67%
Serine/threonine-protein kinase MRCK alpha (CDC42BPA, Homo sapiens, UniProt Q5VT25): 100%
Mitogen-activated protein kinase kinase kinase kinase 1 (MAP4K1, Homo sapiens, UniProt Q92918): 81%
Proto-oncogene tyrosine-protein kinase receptor Ret (RET, Homo sapiens, UniProt P07949, V804M): 100%
Cyclin-dependent kinase 9 (CDK9, Homo sapiens, UniProt P50750): 100%
Tyrosine-protein kinase Mer (MERTK, Homo sapiens, UniProt Q12866): 88%
Casein kinase I isoform gamma-2 (CSNK1G2, Homo sapiens, UniProt P78368): 82%
Casein kinase II subunit alpha (CSNK2A1, Homo sapiens, UniProt P68400): 73%
Ribosomal protein S6 kinase alpha-5, C-terminal kinase domain (RPS6KA5, Homo sapiens, UniProt O75582): 67%
Cyclin-dependent kinase 11B (CDK11B, Homo sapiens, UniProt P21127): 96%
Mitogen-activated protein kinase kinase kinase kinase 3 (MAP4K3, Homo sapiens, UniProt Q8IVH8): 89%
Leucine-rich repeat serine/threonine-protein kinase 2 (LRRK2, Homo sapiens, UniProt Q5S007, G2019S): 100%

Other studies, line by line
CC(C)n1cnc(-c2ccc(F)cc2)c1-c1ncc(C(=O)Nc2ccc(N3CCN(C)CC3)cc2)[nH]1
Hypocalcaemia incidence (IPF patients; 30 mg once daily, adverse event): 0%

Repeated from above (study 3):
Serine/threonine-protein kinase PLK3 (PLK3, Homo sapiens, UniProt Q9H4B4): 89%
Phosphatidylinositol 4,5-bisphosphate 3-kinase catalytic subunit alpha isoform (PIK3CA, Homo sapiens, UniProt P42336, H1047L): 73%
Macrophage colony-stimulating factor 1 receptor (CSF1R, Homo sapiens, UniProt P07333): 100%
Cyclin-dependent kinase 4 (CDK4, Homo sapiens, UniProt P11802): 67%
Serine/threonine-protein kinase MRCK alpha (CDC42BPA, Homo sapiens, UniProt Q5VT25): 100%
Mitogen-activated protein kinase kinase kinase kinase 1 (MAP4K1, Homo sapiens, UniProt Q92918): 81%
